Measurements pooled from the literature.
Each line is one published result; not all experiments were run side by side. ± marks the error that the study gave.
Organism: Klebsiella pneumoniae

The MIC of `CC[C@H](C)[C@H](NC(=O)[C@H](CCCNC(=N)N)NC(=O)[C@@H](N)CCCNC(=N)N)C(=O)N[C@@H](CCCNC(=N)N)C(=O)N1CCC[C@H]1C(=O)N[C@@H](CCCNC(=N)N)C(=O)N1CCC[C@H]1C(=O)N1CCC[C@H]1C(=O)N[C@@H](CCCNC(=N)N)C(=O)N[C@@H](CC(C)C)C(=O)N1CCC[C@H]1C(=O)N[C@@H](CCCNC(=N)N)C(=O)N1CCC[C@H]1C(=O)N[C@@H](CCCNC(=N)N)C(=O)N1CCC[C@H]1C(=O)O` is reported as 2 µM (broth microdilution; NTUH K2044, Mueller Hinton broth; 24 h, 37 °C).
For `CCCCCCCCCC(=O)Oc1ccc(/C=C/C(=O)CC(=O)/C=C/c2ccc(OC(=O)CCCCCCCCC)c(OC)c2)cc1OC`, the MIC was 0.369 µM (microbial growth, broth dilution; 24 h).
With `CC[C@H](C)[C@H](NC(=O)[C@@H]1CCCN1C(=O)[C@H](CCCNC(=N)N)NC(=O)[C@@H]1CCCN1C(=O)CNC(=O)[C@@H]1CCCN1C(=O)[C@H](CCCNC(=N)N)NC(=O)[C@@H]1CCCN1C(=O)[C@H](Cc1ccccc1)NC(=O)[C@@H]1CCCN1C(=O)[C@H](CC(C)C)NC(=O)[C@@H]1CCCN1C(=O)[C@H](CCCNC(=N)N)NC(=O)[C@@H]1CCCN1C(=O)[C@@H](NC(=O)[C@@H]1CCCN1C(=O)[C@H](CCCNC(=N)N)NC(=O)[C@@H]1CCCN1C(=O)CNC(=O)[C@@H]1CCCN1C(=O)[C@H](CCCNC(=N)N)NC(=O)[C@@H]1CCCN1C(=O)[C@H](Cc1ccccc1)NC(=O)[C@@H]1CCCN1C(=O)[C@H](CC(C)C)NC(=O)[C@@H]1CCCN1C(=O)[C@H](CCCNC(=N)N)NC(=O)[C@@H]1CCCN1C(=O)[C@@H](NC(=O)[C@@H]1CCCN1C(=O)[C@H](CCCNC(=N)N)NC(=O)[C@@H]1CCCN1)[C@@H](C)CC)[C@@H](C)CC)C(=O)N1CCC[C@H]1C(=O)N[C@@H](CCCNC(=N)N)C(=O)N1CCC[C@H]1C(=O)O` the MIC was over 32 µM (broth microdilution; NTUH K2044, Mueller Hinton broth; 24 h, 37 °C).
With `CC[C@H](C)CCCCC(=O)N[C@@H](CCN)C(=O)N[C@H](C(=O)N[C@@H](CCN)C(=O)N[C@H]1CCNC(=O)[C@H]([C@@H](C)O)NC(=O)[C@H](CCN)NC(=O)[C@H](CCN)NC(=O)[C@H](CC(C)C)NC(=O)[C@@H](CC(C)C)NC(=O)[C@H](CCN)NC1=O)[C@@H](C)O` the MIC was 0.02 to 0.11 µM (broth microdilution; ATCC 13883; 20 h, 37 °C).
`CC[C@H](C)[C@H](NC(=O)[C@H](CCCNC(=N)N)NC(=O)[C@@H](N)CCCNC(=N)N)C(=O)N[C@@H](CCCNC(=N)N)C(=O)N1CCC[C@H]1C(=O)N[C@@H](CCCNC(=N)N)C(=O)N1CCC[C@H]1C(=O)N1CCC[C@H]1C(=O)N[C@@H](CCCNC(=N)N)C(=O)N[C@@H](CC(C)C)C(=O)N1CCC[C@H]1C(=O)N[C@@H](CCCNC(=N)N)C(=O)N1CCC[C@H]1C(=O)N[C@@H](CCCNC(=N)N)C(=O)O` gave an MIC of 2 µM (broth microdilution; NTUH K2044, Mueller Hinton broth; 24 h, 37 °C).
`CC(C)C[C@H](NC(=O)[C@H](C)NC(=O)CNC(=O)[C@@H](NC(=O)[C@@H](NC(=O)[C@H](CCCCN)NC(=O)[C@H](CCCCN)NC(=O)[C@@H](NC(=O)[C@H](CC(C)C)NC(=O)[C@H](CCCCN)NC(=O)[C@H](CC(C)C)NC(=O)[C@H](CC(C)C)NC(=O)[C@@H](N)CCCCN)C(C)C)C(C)C)C(C)C)C(=O)NCC(N)=O` has an MIC of over 22 µM (ATCC 700603, CAMHB; 18 h, 37 °C).
The MIC of `CC[C@H](C)[C@H](NC(=O)[C@H](CCCCN)NC(=O)[C@H](CC(C)C)NC(=O)[C@H](CC(C)C)NC(=O)[C@H](C)NC(=O)CNC(=O)[C@H](CC(C)C)NC(=O)[C@@H](N)Cc1ccccc1)C(=O)NCC(=O)N[C@@H](C)C(=O)N[C@@H](CCCCN)C(=O)N[C@@H](CC(C)C)C(=O)N[C@@H](CC(C)C)C(=O)N1CCC[C@H]1C(=O)N[C@@H](CO)C(=O)N[C@H](C(=O)N[C@H](C(=O)NCC(=O)N[C@@H](CC(C)C)C(=O)N[C@@H](Cc1ccccc1)C(=O)N[C@@H](CCCCN)C(=O)N[C@@H](CCCCN)C(=O)N[C@@H](CCCCN)C(=O)N[C@@H](CCC(N)=O)C(=O)N[C@@H](CCC(N)=O)C(=O)O)C(C)C)C(C)C` is reported as 23.7 to 47.4 µM (broth microdilution; ATCC 13883; 20 h, 37 °C).
With `CC[C@H](C)[C@H](NC(=O)[C@H](CO)NC(=O)[C@@H](NC(=O)[C@H](C)NC(=O)[C@H](CCC(N)=O)NC(=O)CNC(=O)[C@@H](NC(=O)[C@@H](NC(=O)CNC(=O)[C@@H](NC(=O)[C@H](C)NC(=O)[C@@H]1CCCN1C(=O)CNC(=O)[C@H](C)NC(=O)[C@H](CCCCN)NC(=O)[C@@H](NC(=O)[C@@H](NC(=O)CNC(=O)[C@H](CC(=O)O)NC(=O)[C@H](CCCNC(=N)N)NC(=O)[C@@H](NC(=O)[C@H](CCCCN)NC(=O)[C@H](CCCNC(=N)N)NC(=O)CNC(=O)[C@@H](NC(=O)[C@H](CCCCN)NC(=O)[C@H](CCC(=O)O)NC(=O)[C@@H](NC(=O)[C@H](CCCCN)NC(=O)[C@H](CCCCN)NC(=O)[C@H](CC(C)C)NC(=O)[C@H](Cc1ccccc1)NC(=O)[C@H](CCCCN)NC(=O)[C@H](Cc1c[nH]c2ccccc12)NC(=O)[C@@H](N)CCCNC(=N)N)[C@@H](C)CC)C(C)C)C(C)C)C(C)C)[C@@H](C)CC)C(C)C)C(C)C)C(C)C)[C@@H](C)O)C(=O)N[C@@H](Cc1ccc(O)cc1)C(=O)N[C@@H](CCCCN)C(N)=O` the MIC was 4.3 ± 1.4 µg/mL (broth microdilution; ATCC 700603; 20 h, 37 °C).
The MIC of `CC[C@H](C)[C@H](NC(=O)[C@H](CC(=O)O)NC(=O)[C@H](Cc1ccccc1)NC(=O)[C@H](CC(C)C)NC(=O)CN)C(=O)N[C@H](C(=O)N[C@@H](CCCCN)C(=O)N[C@@H](CCCCN)C(=O)N[C@H](C(=O)N[C@H](C(=O)N[C@@H](CCCCN)C(=O)N[C@@H](CC(C)C)C(=O)N[C@@H](CC(C)C)C(=O)N[C@@H](CCCCN)C(N)=O)C(C)C)C(C)C)C(C)C` is reported as over 20 µM (ATCC 700603, CAMHB; 18 h, 37 °C).
`CC[C@H](C)[C@H](NC(=O)CNC(=O)[C@H](CC(=O)O)NC(=O)[C@H](CCCNC(=N)N)NC(=O)[C@@H](NC(=O)[C@H](CC(N)=O)NC(=O)[C@H](CCCNC(=N)N)NC(=O)CNC(=O)[C@@H](NC(=O)[C@H](CCCCN)NC(=O)[C@H](CCC(=O)O)NC(=O)[C@@H](NC(=O)[C@H](CCCCN)NC(=O)[C@H](CCCCN)NC(=O)[C@H](Cc1ccccc1)NC(=O)[C@@H](NC(=O)[C@H](CCCCN)NC(=O)[C@H](Cc1c[nH]c2ccccc12)NC(=O)[C@@H](N)CCCCN)[C@@H](C)CC)[C@@H](C)CC)C(C)C)C(C)C)C(=O)N[C@H](C(=O)N[C@@H](CCCCN)C(=O)N[C@@H](C)C(=O)NCC(=O)N1CCC[C@H]1C(=O)N[C@@H](C)C(=O)N[C@H](C(=O)N[C@@H](CCC(N)=O)C(=O)N[C@H](C(=O)N[C@H](C(=O)NCC(=O)N[C@@H](CCC(N)=O)C(=O)N[C@@H](C)C(=O)N[C@H](C(=O)N[C@@H](CO)C(=O)N[C@H](C(=O)N[C@@H](C)C(=O)N[C@@H](CCCCN)C(N)=O)[C@@H](C)CC)[C@@H](C)O)C(C)C)C(C)C)C(C)C)[C@@H](C)CC` has an MIC of 16.2 ± 1.9 µg/mL (broth microdilution; ATCC 700603; 20 h, 37 °C).
The MIC of `CC[C@H](C)[C@H](NC(=O)[C@H](CC(=O)O)NC(=O)[C@H](Cc1ccccc1)NC(=O)[C@H](CC(C)C)NC(=O)CN)C(=O)N[C@H](C(=O)N[C@@H](CCCCN)C(=O)N[C@@H](CCCCN)C(=O)N[C@H](C(=O)N[C@H](C(=O)NCC(=O)N[C@@H](CC(C)C)C(=O)N[C@@H](CC(C)C)C(=O)N[C@@H](CCCCN)C(N)=O)C(C)C)C(C)C)C(C)C` is reported as over 21 µM (ATCC 700603, CAMHB; 18 h, 37 °C).
`CC[C@H](C)[C@H](NC(=O)[C@H](CCCNC(=N)N)NC(=O)[C@@H](N)CCCNC(=N)N)C(=O)N[C@@H](CCCNC(=N)N)C(=O)N1CCC[C@H]1C(=O)N[C@@H](CCCNC(=N)N)C(=O)N1CCC[C@H]1C(=O)N1CCC[C@H]1C(=O)N[C@@H](CCCNC(=N)N)C(=O)N[C@@H](CC(C)C)C(=O)N1CCC[C@H]1C(=O)N[C@@H](CCCNC(=N)N)C(=O)N1CCC[C@H]1C(=O)N[C@@H](CCCNC(=N)N)C(=O)N1CCC[C@H]1C(=O)N[C@@H](CCCNC(=N)N)C(=O)N1CCC[C@H]1C(=O)N[C@@H](CC(C)C)C(=O)N1CCC[C@H]1C(=O)N[C@@H](Cc1ccccc1)C(=O)N1CCC[C@H]1C(=O)N[C@@H](CCCNC(=N)N)C(=O)N1CCC[C@H]1C(=O)NCC(=O)O` has an MIC of 0.7 µM (broth microdilution; NTUH K2044, Mueller Hinton broth; 24 h, 37 °C).
The MIC of `CC(C)C[C@H](NC(=O)[C@H](C)NC(=O)CNC(=O)[C@@H](NC(=O)[C@H](CC(C)C)NC(=O)[C@H](CCCCN)NC(=O)[C@H](CCCCN)NC(=O)[C@H](CC(C)C)NC(=O)[C@H](CC(C)C)NC(=O)[C@H](CCCCN)NC(=O)[C@H](CC(C)C)NC(=O)[C@H](CC(C)C)NC(=O)[C@@H](N)CCCCN)C(C)C)C(=O)NCC(N)=O` is reported as 5 µM (ATCC 700603, CAMHB; 18 h, 37 °C).
For `CC[C@H](C)[C@H](NC(=O)[C@H](Cc1ccccc1)NC(=O)[C@H](CC(=O)O)NC(=O)[C@H](CCCCN)NC(=O)[C@H](C)NC(=O)[C@H](CCCCN)NC(=O)[C@H](CC(N)=O)NC(=O)[C@H](CC(C)C)NC(=O)[C@H](Cc1c[nH]c2ccccc12)NC(=O)[C@H](CCC(=O)O)NC(=O)[C@H](CCCCN)NC(=O)[C@@H](NC(=O)CNC(=O)[C@H](C)N)[C@@H](C)O)C(=O)N[C@@H](CCCCN)C(=O)N[C@@H](CCC(=O)O)C(=O)N[C@@H](CCCCN)C(=O)NCC(=O)N[C@@H](CC(C)C)C(=O)NCC(=O)N[C@@H](CCSC)C(=O)N[C@@H](CC(C)C)C(=O)N[C@@H](CO)C(=O)N[C@@H](C)C(=O)N[C@@H](C)C(=O)N[C@@H](C)C(=O)N[C@@H](CC(N)=O)C(=O)N[C@@H](C)C(=O)N[C@@H](C)C(=O)N[C@@H](CC(C)C)C(=O)N[C@@H](CC(N)=O)C(=O)O`, the MIC was over 40 µM (broth microdilution; ATCC 13883; 20 h, 37 °C).

Some of these lines once more:
The MIC of `CC[C@H](C)[C@H](NC(=O)[C@H](CC(=O)O)NC(=O)[C@H](Cc1ccccc1)NC(=O)[C@H](CC(C)C)NC(=O)CN)C(=O)N[C@H](C(=O)N[C@@H](CCCCN)C(=O)N[C@@H](CCCCN)C(=O)N[C@H](C(=O)N[C@H](C(=O)NCC(=O)N[C@@H](CC(C)C)C(=O)N[C@@H](CC(C)C)C(=O)N[C@@H](CCCCN)C(N)=O)C(C)C)C(C)C)C(C)C` is reported as over 21 µM (ATCC 700603, CAMHB; 18 h, 37 °C).
